Measured values collected from several papers.
A part holds a random share of what one study measured.

Series 1 — technique: universal PBM; form: double-stranded DNA, one strand shown; medium: in vitro; concentration: not given; reading: higher = stronger binding
Target: Sal-like protein 4, full length isoform B (SALL4, Homo sapiens, UniProt Q9UJQ4-2, residues 1-616)
Setting: 8-mer, flanks averaged, mean of replicates
Target sequence (chain): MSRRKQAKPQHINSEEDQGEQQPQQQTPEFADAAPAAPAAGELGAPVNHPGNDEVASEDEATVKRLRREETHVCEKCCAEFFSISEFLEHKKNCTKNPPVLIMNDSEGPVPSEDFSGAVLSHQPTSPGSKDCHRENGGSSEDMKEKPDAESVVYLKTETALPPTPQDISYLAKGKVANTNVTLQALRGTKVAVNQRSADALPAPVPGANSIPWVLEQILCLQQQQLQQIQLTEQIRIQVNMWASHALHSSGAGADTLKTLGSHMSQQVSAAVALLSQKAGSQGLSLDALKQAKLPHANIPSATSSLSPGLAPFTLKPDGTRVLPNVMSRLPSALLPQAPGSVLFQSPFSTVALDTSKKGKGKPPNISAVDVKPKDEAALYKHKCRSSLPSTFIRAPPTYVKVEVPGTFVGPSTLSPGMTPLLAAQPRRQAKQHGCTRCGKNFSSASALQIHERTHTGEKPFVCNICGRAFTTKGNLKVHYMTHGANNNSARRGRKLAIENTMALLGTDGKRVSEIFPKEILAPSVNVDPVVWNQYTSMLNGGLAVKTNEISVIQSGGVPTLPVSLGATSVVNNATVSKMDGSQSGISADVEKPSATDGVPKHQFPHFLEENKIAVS
Strand	E-score
CTGAGATC	-0.286
GATCTTGA	0.105
AAAATTTA	0.351
AATTGGCA	0.146
GCCCACAC	-0.109
GATGTAAA	0.227
CCCGAATA	0.112
GCATTGCC	-0.109
CCAGTCCA	-0.36
ATGAGGCG	-0.037
CAAGGTTC	-0.0731
AAGGTCGT	0.00841
GTACAACA	0.149
GCATGTAC	-0.0812
ATCCAGGC	-0.298
TACGTTGA	0.227
CTCCCTAA	0.00289
ACTTTCAT	0.266
CGCTGCTA	-0.27
GCAATCCC	-0.216
ACAAGGTA	0.128
CCTTAAAG	0.0125
ACGTTAGA	0.143
AGAGCTCA	-0.14
CTCCCGCA	-0.193

Series 2 — technique: RNA Bind-n-Seq; form: RNA; medium: in vitro; concentration: 1 µM; setting: whole 134-nt RNA, ends assumed; together with: 150 mM KCl; relative to: input library; reading: higher = stronger binding
Target: Ras GTPase-activating protein-binding protein 1, C-terminal RGG region (G3BP1, Homo sapiens, UniProt Q13283)
Chain of UniProt Q13283 (whole entry, looked up): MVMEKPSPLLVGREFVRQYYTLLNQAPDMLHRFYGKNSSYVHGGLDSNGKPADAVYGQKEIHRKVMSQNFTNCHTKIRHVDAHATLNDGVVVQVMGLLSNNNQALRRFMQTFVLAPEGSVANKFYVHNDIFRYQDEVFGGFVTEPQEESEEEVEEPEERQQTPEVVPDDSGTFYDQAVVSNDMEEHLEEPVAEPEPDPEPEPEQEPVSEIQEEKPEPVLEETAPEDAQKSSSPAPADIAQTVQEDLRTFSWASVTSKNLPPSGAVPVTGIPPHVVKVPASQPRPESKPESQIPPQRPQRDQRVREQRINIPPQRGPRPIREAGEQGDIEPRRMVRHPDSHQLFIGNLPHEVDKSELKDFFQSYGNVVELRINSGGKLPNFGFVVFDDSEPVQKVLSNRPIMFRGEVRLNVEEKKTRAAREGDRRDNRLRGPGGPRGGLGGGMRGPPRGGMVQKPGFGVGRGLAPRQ
Constant ends, left off below: GGGAGUUCUACAGUCCGACGAUC … UGGAAUUCUCGGGUGUCAAGG
Strand	log2 enrichment
GUCCUGUGCUACACAUCGUAUGUACCGAAUCGUGUGUGUGUGUGUGUGUGUGUGUGUGUAAAGUAUUAUGUUACGCCGUUCGGAUCUGCA	1.5
AGUCCUGUGCUACACAUCGUAUGUACCGAAUCGGGGCCCCGGGCCCCGGGCCCCGGGAAAGUAUUAUGUUACGCCGUUCGGAUCUGCACU	-2.17
UGGGAGGUGGAUUUUGUUUAUUUUUUUAGCUCAUUUCCAGGGGUGGGAAUUUUUUUUUAAUAUGUGUCAUGACUAAAGUUGUUUUUGAAA	2.67
AAGUCCUGUGCUACACAUCGUAUGUACCGAAUCGGGGCCCCGGGCCCCGGCCCCGGGAAAGUAUUAUGUUACGCCGUUCGGAUCUGCACU	-1.78
UCAAGUCCUGUGCUACACAUCGUAUGUACCGAAUCGGGGUUGGUUGGGUUGGGGAAAGUAUUAUGUUACGCCGUUCGGAUCUGCACUUCC	0.443
AAGUCCUGUGCUACACAUCGUAUGUACCGAAUCGGUUUUGGUUUUGGGGUUUUGGGGAAAGUAUUAUGUUACGCCGUUCGGAUCUGCACU	-1.02
UGGCCCUGGUCGCAUGCGGGGAGGAAGAGGUGGCCUCAUGGAUCGUGGUGGUCCCGGUGGAAUGUUCAGAGGUGGCCGUGGUGGAGACAG	2.03
CAAGUCCUGUGCUACACAUCGUAUGUACCGAAUCGGCCCCGGCCCCGGGGCCCCGGAAAGUAUUAUGUUACGCCGUUCGGAUCUGCACUU	-1.84
CUCAAGUCCUGUGCUACACAUCGUAUGUACCGAAUCGGUUUUUUUGGAGGUGGAAAGUAUUAUGUUACGCCGUUCGGAUCUGCACUUCCA	-1.01

Series 3 — technique: RNA Bind-n-Seq; form: RNA; medium: in vitro; concentration: 365 nM; relative to: no-protein control; reading: higher = stronger binding
Target: RNA binding protein fox-1 homolog 2, RRM domain, GST-SBP tag (RBFOX2, Homo sapiens, UniProt O43251-10, residues 100-194)
Setting: natural RNA segment, single round, ends assumed
Constant ends, left off below: GGGAGUUCUACAGUCCGACGAUC … UGGAAUUCUCGGGUGCCAA
Construct (chain): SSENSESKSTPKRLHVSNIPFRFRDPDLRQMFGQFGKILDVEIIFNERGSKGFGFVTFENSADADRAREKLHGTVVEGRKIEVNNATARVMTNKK
Strand	RBNS enrichment (R)
UUAACCUGUUCCAUCCCAUGGAACCACAGAGGAGGAAGACCUUGAAUUAUUCUGUCACCCAGCCUGGCGUAGGACUCUUUUGGUCCUGCCUGCUUCCUAUCUCUGGAGGA	0.255
AUUUGUUUGGCUUAAACGUCAAAAGCCGUGACAAUUUGUUCUUUGAUGUGAUUGUAUUUCCAAUUUCUUGUUCAUGUAAGAUUUCAAUAAAACUAAAAAAUCUAUUCAAA	1.1
CAUGUGCAUUAAAUACUUUGCCAGCACUGCCUUUGCCAGCAUCCUAAAUCUGGAGUUUUACAAAGAAGGAAACUGUAUCUUUAGGUUAAUCAAAGCUAUGCAUUUCAUAU	0.601
CAUUUGCUGAGGAUGGAGAGGCAGGGGAGGGAGGCGGGAGGCCGUCACUGGAGUGGCGUCUGCAGCAGCUGCUGCCCCAGCACCCGCUCAGCCUGUCCUGGCUGCUCACC	0.397
GUGUGUGUGUGUGUGUAUGUUCAUGUACACUUGGCUGUCAGGCUUUCUGUGCAUGUACUAAAAAAGGAGAAAUUAUAAUAAAUUAGCCGUCUUGCGGCCCCUAGGCCUAA	3.47
UCUUAUUUUGGAUUAAAAGAAGUUUUCCAUUUGAUACCUCUCUAAAUUAAAUAAAUUAUAGAAUGUAGUUGGGUGGAUUUUGGGGUGGCCAUAUAGUAAUGGAAAGCUGC	0.59
GAUGUAAAACACAAGCCAGACAGAUGGCAAAGACUAGACUUGCCCGCAAAGAAAUUGAGUUGAUUAGGCAAGUCUAUACAAUUAGAGGCAAAGGUCACAGUGAUGCAAAA	0.563
UUCUCAGAGUCUCAACACAGGAACGGAGUCUUCGGCUAUCAUGGACUAGGCUGAGGCUAGUGCUGGUGUGGACUCGUUGCCCACUGUCUUCCUGUUUAUGAUUAACUCUG	0.552

Series 4 — technique: RNA Bind-n-Seq; form: RNA; medium: in vitro; concentration: 100 nM; relative to: input RNA pool; reading: higher = stronger binding
Target: RING finger protein unkempt homolog, zinc fingers 1-6, SBP tag (UNK, Homo sapiens, UniProt Q9C0B0, residues 30-357)
Chain of UniProt Q9C0B0 (30-357, looked up): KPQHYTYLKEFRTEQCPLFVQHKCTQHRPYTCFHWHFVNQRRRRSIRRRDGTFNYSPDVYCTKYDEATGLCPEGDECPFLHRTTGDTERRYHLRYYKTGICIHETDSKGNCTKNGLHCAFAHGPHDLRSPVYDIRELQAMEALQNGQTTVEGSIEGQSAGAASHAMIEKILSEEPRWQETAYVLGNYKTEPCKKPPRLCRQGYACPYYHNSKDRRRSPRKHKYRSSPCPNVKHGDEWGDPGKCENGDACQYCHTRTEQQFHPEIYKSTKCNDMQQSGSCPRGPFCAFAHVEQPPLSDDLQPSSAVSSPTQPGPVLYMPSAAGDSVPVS
Setting: RNA with constant flanks, vertebrate orthologous sites, ends assumed
Constant ends, left off below: GGGAGUUCUACAGUCCGACGAUC … CAACAGAGGAUUGAGCAUCA
Strand	bound/input enrichment
CCGCAUUAGCACCCUGCCAGCCCAGCAAUCUCUCUGUGCACAGCUUCAAAUGUUAUGGUCUAGCUAGAUUUUUAUUUAAAAUAUGAAAAACUGCUUUUCCCAAGACAUUUUUUAAAGAAA	0.478 ratio
AUUAAAUGUGUAUCAGAUGCUGGAUGUAACAUUAAAUCAUCAUUUAUAAUAGAUGUUAAUUUGUAAUAACUAAGCUACAAAUAGGUUUCUUUGAACCAGAGAUGCACUGCCCUUGUCUGA	0.144 ratio
AGUUUGUAUGUACAUUAUUCACAUUCCUCUCUGUUGUGUUUGGGGGAGAAAAAGACAUUUUAGCCUUUUUUAAGGUUAUUGAUUUAAUUUCAUGUUAUUUGGUUGCAUGAAGUUGCCCUU	0.478 ratio
AUUUAGAAGCUUAAUAAAUUGCUCCAAGAUUUCUAAAGUUGGUUUUGUAAGAUCAGACCAUAGGUUGGUGUUCUCUUAAGCUUGUGUACUCUGUCCAACGUCACAUUUUUAAAAGCGUUC	0.336 ratio
GCACAUGCCGUUAUCACCAAAAGCAAACUAUCACUUUUCAAAUUUCAUUCUGAGCCGUUUUAGUGUUUCCUAUUCCCUACUCUUCCCACUACUUUCAAUGAUACAAUAUCCUGAGUUUUC	2.49 ratio
AAGAUGGUGGUUGUACAUUAUUUCAUUUAGAAAAUAUAAAAAUUCAUUUUGUUUUGAAGCUAGGUGUUAAACUGGAAUAGCUCUUAUACCCCAGAGAAUGGGGCAGUUGCGCCCUUCCCU	2.19 ratio
AAGAAAUGCUGGCUGCAAACCCUCAGGAUCGACCAGAUGCUUUUGAACUAGAACUCAGAUUAGUACAAAUUGCAUUUAAAGAUAGCAGCUGGGAAACGUGACACAUACAUUGUUCGCAGA	0.414 ratio
AGGAAAUGCUGGCUGCAAACCCUCAGGAUCGUCCAGAUGCUUUUGAACUAGAACUCAGAUUAGUACAAAUUGCAUUUAAAGAUAGCAGCUGGGAAACGUGACACAUAUUAUUUGCAAAUA	0.879 ratio

Some of these lines once more (series 1):
Strand	E-score
GATCTTGA	0.105
ATGAGGCG	-0.037
CGCTGCTA	-0.27
CCAGTCCA	-0.36
TACGTTGA	0.227
ATCCAGGC	-0.298
